Assay results pooled from the literature.
Every numbered part comes from another study and shows a few of its results, in no order. Positions count from the first letter of the parent shown.

Block 1 — method: DHFR PCA, deep sequencing; matrix: yeast; with: (+)-ABA 1.4 µM; relative to: wild-type fitted maximum; direction: higher = stronger binding
Target: ABI1, truncated, D143A, DHFR fusion (Arabidopsis thaliana)
Setting: methotrexate growth selection, single substitutions
Starting sequence: PYL1, truncated, DHFR fusion (Arabidopsis thaliana); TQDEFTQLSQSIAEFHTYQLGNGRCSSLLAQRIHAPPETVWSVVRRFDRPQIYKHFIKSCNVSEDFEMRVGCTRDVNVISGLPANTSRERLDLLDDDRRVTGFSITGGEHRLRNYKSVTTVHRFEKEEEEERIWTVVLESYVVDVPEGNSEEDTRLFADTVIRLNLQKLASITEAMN; partner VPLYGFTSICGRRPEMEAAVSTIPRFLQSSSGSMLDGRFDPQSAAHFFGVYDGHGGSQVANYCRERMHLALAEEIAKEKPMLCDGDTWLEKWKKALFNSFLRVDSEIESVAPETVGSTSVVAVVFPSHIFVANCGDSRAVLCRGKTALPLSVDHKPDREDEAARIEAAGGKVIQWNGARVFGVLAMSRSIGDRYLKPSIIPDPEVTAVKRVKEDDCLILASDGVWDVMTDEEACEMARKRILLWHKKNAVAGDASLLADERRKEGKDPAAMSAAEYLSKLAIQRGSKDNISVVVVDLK
Under “relative binding score”, `T173R` is recorded as 0.289%.
`S104G`: “relative binding score” -1.87%.
`S104E` — result for “relative binding score”: -3.2%.
For `L94K`, “relative binding score” read -5.54%.
Under “relative binding score”, `E109P` is recorded as -10.8%.
`H16P`: “relative binding score” 1.32%.
Under “relative binding score”, `R123N` is recorded as 51%.
`V121E` — result for “relative binding score”: -5.04%.
Under “relative binding score”, `M176Y` is recorded as 28.1%.
Under “relative binding score”, `T120L` is recorded as -2.43%.
For `E127S`, “relative binding score” read 66.6%.
`L20R`: “relative binding score” 61.2%.
Under “relative binding score”, `T120K` is recorded as 1.64%.
`E64M`: “relative binding score” 28.4%.
`D48E`: “relative binding score” 12.9%.
Under “relative binding score”, `L94A` is recorded as 0.24%.
`T17I` — result for “relative binding score”: -27.5%.

Block 2 — target: UBE2S UBC core domain (UniProt Q16763); method: yeast two-hybrid; matrix: yeast; setting: mostly zero background; relative to: not given; direction: higher = stronger interaction
B1: RNF152 RING domain (UniProt Q8N8N0); chain ETLSQDSLLECQICFNYYSPRRRPKLLDCKHTCCSVCLQQMRTSQKDVRCPWCRGVTKLPPGFS
B2: DEF8 RING domain (UniProt Q6ZN54); chain AGRLGCSLTEIHTLFAKHIKLDCERCQAKGFVCELCREGDVLFPFDSHTSVCADCSAVFHRDCYYDNSTTCPKCARLSLRK
B3: RNF2 RING domain (UniProt Q99496); chain SPRSLHSELMCPICLDMLKNTMTTKECLHRFCADCIITALRSGNKECPTCRKKLVSKRSLR
B4: MKRN2 RING domain (UniProt Q9H000); chain FAFQASQDKVCSICMEVILEKASASERRFGILSNCNHTYCLSCIRQWRCAKQFENPIIKSCPECRVISEFVIPSV
B5: MEX3B RING domain (UniProt Q6ZN04); chain SGLRRKGSRDCSVCFESEVIAALVPCGHNLFCMECANRICEKSEPECPVCHTAVTQAIRIF
B6: TRIM31 RING domain (UniProt Q9BZY9); chain FVNKLQEEVICPICLDILQKPVTIDCGHNFCLKCITQIGETSCGFFKCPLCKTSVRKNAIRF
Construct (chain): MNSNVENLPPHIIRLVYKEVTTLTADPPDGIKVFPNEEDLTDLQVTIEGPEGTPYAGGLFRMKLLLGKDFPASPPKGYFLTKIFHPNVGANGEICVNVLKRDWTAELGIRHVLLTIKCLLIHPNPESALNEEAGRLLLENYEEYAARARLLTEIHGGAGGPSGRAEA
For `LGTKLEAKYLCSACRNVLRRPFQAQCGHRYCSFCLASILSSGPQNCAACVHEGIYEEGIS (TRAF2 RING domain (UniProt Q12933))`, “lacZ reporter activity” read 0.
Under “lacZ reporter activity”, `B1 (RNF152 RING domain)` is recorded as 0.
Under “lacZ reporter activity”, `B2 (DEF8 RING domain)` is recorded as 0.
`MNDVLENELQCIICSEYFIEAVTLNCAHSFCSYCINEWMKRKIECPICRKDIKSKTYSL (RNF8 RING domain (UniProt O76064))` — result for “lacZ reporter activity”: 0.
Under “lacZ reporter activity”, `B3 (RNF2 RING domain)` is recorded as 0.
For `FVKTVEDKYKCEKCHLVLCSPKQTECGHRFCESCMAALLSSSSPKCTACQESIVKDKVF (TRAF3 RING domain (UniProt Q13114))`, “lacZ reporter activity” read 0.
For `B4 (MKRN2 RING domain)`, “lacZ reporter activity” read 0.
Under “lacZ reporter activity”, `KPDKMEETLTCIICQDLLHDCVSLQPCMHTFCAACYSGWMERSSLCPTCRCPVERICKNH (CHFR RING domain (UniProt Q96EP1))` is recorded as 0.
For `QVQSRTKIEECVVCSDKKAAVLFQPCGHMCACENCANLMKKCVQCRAVVERRVPFI (MIB1 RING domain (UniProt Q86YT6))`, “lacZ reporter activity” read 0.
Under “lacZ reporter activity”, `B5 (MEX3B RING domain)` is recorded as 0.
For `B6 (TRIM31 RING domain)`, “lacZ reporter activity” read 0.

Block 3 — method: protein-binding microarray; molecule type: double-stranded DNA, one strand shown; matrix: in vitro; concentration: 940 nM top; setting: 60-bp whole probe; with: salmon DNA 0.4 mg/ml; relative to: random background probes; direction: higher = stronger binding; all sequences stand within: GCCTAGCAC … GTCTTGATTCGCTTGACGCTGCTG
Target: Interferon regulatory factor 5, full length, phosphomimetic (IRF5, Homo sapiens, UniProt Q13568-2, residues 1-514, S451D/S453D/S456D/S462D)
For `TTAGGTTTCGGGTATCGGTAAGTGCTA`, “fitted relative affinity” read 11.4 z-score.
`TCATTTCTCTATTGCTTACTGTGCTAG` — result for “fitted relative affinity”: 1.75 z-score.
For `TTAGGTATCGGGACTGGCTTAGTGCTA`, “fitted relative affinity” read 3.69 z-score.
Under “fitted relative affinity”, `TTAGATCTCATTCTCGATTAGTGCTAG` is recorded as 3.01 z-score.
Under “fitted relative affinity”, `AATGTATAACGCCATTAGCTGTGCTAG` is recorded as -0.302 z-score.
`TCAGGTTTCGGTTCCGGTTAGTGCTAG`: “fitted relative affinity” 13.4 z-score.
`TCAGGTTTCACTTTAAAACTGTGCTAG`: “fitted relative affinity” 8.24 z-score.
`GAAGAAATTTAATAGTCACTGTGCTAG` — result for “fitted relative affinity”: -0.304 z-score.
`GACAGTCTCGGACTGGGGACGTGCTAG` — result for “fitted relative affinity”: 1.69 z-score.
Under “fitted relative affinity”, `TCATATTTTAATCACATACTGTGCTAG` is recorded as 0.765 z-score.
`TTAGATATCACTTTCGATTAGTGCTAG`: “fitted relative affinity” 4.83 z-score.
`CTTTATGTCCTGTCTACATGGGTGCTA`: “fitted relative affinity” 0.197 z-score.
`GACGGTCTCGGTTTCAGGACGTGCTAG` — result for “fitted relative affinity”: 4.63 z-score.
`TCATCTTCACATATAATACTGTGCTAG` — result for “fitted relative affinity”: 1.18 z-score.
`TTAGGTATCGACACTGGATTAGTGCTA` — result for “fitted relative affinity”: 5.3 z-score.
`GACGATATCCTTATCCTGACGTGCTAG`: “fitted relative affinity” -0.175 z-score.
For `CAACATCTGCAAGATCCACAAGTGCTA`, “fitted relative affinity” read -0.299 z-score.
`GACGGTTTCCTTTCCCTAACGTGCTAG` — result for “fitted relative affinity”: 2.33 z-score.
For `TCAGATATAAATGTAACACTGTGCTAG`, “fitted relative affinity” read 0.0868 z-score.

Block 4 — target: CCND3, cyclin fold, Cln2 fusion (human); method: yeast growth competition, sequencing; matrix: yeast; setting: weak parent motif; relative to: not given; direction: higher = stronger binding
Starting sequence: CDC25A docking peptide (human); PPHRRRLLFACSP; partner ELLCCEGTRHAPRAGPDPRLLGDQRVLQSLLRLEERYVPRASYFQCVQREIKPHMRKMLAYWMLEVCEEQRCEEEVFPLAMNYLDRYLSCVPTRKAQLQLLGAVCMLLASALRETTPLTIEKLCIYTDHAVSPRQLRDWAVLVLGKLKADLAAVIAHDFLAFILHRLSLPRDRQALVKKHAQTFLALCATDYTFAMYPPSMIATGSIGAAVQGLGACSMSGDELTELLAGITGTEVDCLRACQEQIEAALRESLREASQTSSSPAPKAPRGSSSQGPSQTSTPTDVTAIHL
For `PPLRRRLLFACSP [H3L]`, “normalised enrichment score” read 0.175.
For `PPHRRRLLFDCSP [A10D]`, “normalised enrichment score” read 0.0931.
Under “normalised enrichment score”, `FPHRRRLLFACSP [P1F]` is recorded as 0.0653.
For `PPMRRRLLFACSP [H3M]`, “normalised enrichment score” read 0.145.
For `PDHRRRLLFACSP [P2D]`, “normalised enrichment score” read 0.0763.
For `PPHRKRLLFACSP [R5K]`, “normalised enrichment score” read 0.385.
Under “normalised enrichment score”, `PPHRRRLLFACSN [P13N]` is recorded as 0.151.
For `PPHRRCLLFACSP [R6C]`, “normalised enrichment score” read 0.0809.
`PPHRRRLLFACCP [S12C]`: “normalised enrichment score” 0.151.
`PPHSRRLLFACSP [R4S]` — result for “normalised enrichment score”: 0.00134.
`PEHRRRLLFACSP [P2E]`: “normalised enrichment score” 0.157.
`PPHRRRLLFACEP [S12E]` — result for “normalised enrichment score”: 0.155.
`PPHRRRLLFAYSP [C11Y]` — result for “normalised enrichment score”: 0.0892.
For `PPIRRRLLFACSP [H3I]`, “normalised enrichment score” read 0.117.
For `WPHRRRLLFACSP [P1W]`, “normalised enrichment score” read 0.146.
`PPHRRRLLWACSP [F9W]` — result for “normalised enrichment score”: 0.0942.
`PPHRRRLLFACSD [P13D]` — result for “normalised enrichment score”: 0.28.
Under “normalised enrichment score”, `PPHRRRLLFADSP [C11D]` is recorded as 0.0464.

Some of these lines once more (block 3):
Under “fitted relative affinity”, `AATGTATAACGCCATTAGCTGTGCTAG` is recorded as -0.302 z-score.
`TCAGGTTTCGGTTCCGGTTAGTGCTAG`: “fitted relative affinity” 13.4 z-score.
`TCAGGTTTCACTTTAAAACTGTGCTAG`: “fitted relative affinity” 8.24 z-score.
`GAAGAAATTTAATAGTCACTGTGCTAG` — result for “fitted relative affinity”: -0.304 z-score.
`GACAGTCTCGGACTGGGGACGTGCTAG` — result for “fitted relative affinity”: 1.69 z-score.
Under “fitted relative affinity”, `TCATATTTTAATCACATACTGTGCTAG` is recorded as 0.765 z-score.
`TTAGATATCACTTTCGATTAGTGCTAG`: “fitted relative affinity” 4.83 z-score.
